Measured values of several laboratories.
Each numbered part is a random draw from the data of one study; scales do not carry over between parts. Substitutions count along the parent as printed.

Block 1
Target: Histone acetyltransferase KAT6A, both winged helices, GST fusion (KAT6A, Homo sapiens, UniProt Q92794, residues 1-181)
Method: protein binding microarray
Molecule type: double-stranded DNA, one strand shown
Sample: in vitro
Tested at: not given
Setting: 8-mer, flanks averaged, mean of 2 arrays, mostly near background
Relative to: not given
Reading: higher = stronger binding
Construct (chain): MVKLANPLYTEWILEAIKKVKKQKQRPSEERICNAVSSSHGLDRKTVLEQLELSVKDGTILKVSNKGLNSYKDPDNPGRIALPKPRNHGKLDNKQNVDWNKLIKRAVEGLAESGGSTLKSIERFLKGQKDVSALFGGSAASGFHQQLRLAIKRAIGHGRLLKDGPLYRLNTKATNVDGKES
| Oligonucleotide | E-score |
| --- | --- |
| ATGCTATG | -0.193 |
| AGCCGAAC | 0.0667 |
| AAGAAGCA | -0.0552 |
| ATCGGCTC | 0.136 |
| CACAGCGG | 0.0783 |
| CGGCTCGA | 0.169 |
| ATAATTTA | 0.0177 |
| ATGTACTC | -0.00844 |
| GGAGGACA | -0.098 |
| GGCTTTTA | -0.0187 |
| ACCCACCC | -0.0977 |
| CCAGTGAC | -0.156 |
| CTCGGCGC | 0.32 |
| GACATGAA | -0.00343 |
| GTGCCAGA | -0.111 |
| CGTTGCAC | 0.0893 |
| AGCCAGGC | -0.151 |
| ACCATCGA | -0.215 |
| CCGAGTAG | -0.0517 |
| CCTGCAAG | -0.172 |
| GCCATAGC | 0.0609 |
| CTAGTGTA | -0.0594 |
| CTAATTTC | -0.0296 |
| TAATCAAA | -0.00885 |
| CACAGCCC | -0.0839 |

Block 2
Target: ABI1, truncated, D143A, DHFR fusion (Arabidopsis thaliana, UniProt P49597)
Method: DHFR PCA, dose-response
Sample: yeast
Setting: Hill fit, not affinity, not high confidence
Added: (+)-ABA, dose series
Reading: lower = more sensitive
Starting sequence: PYL1, truncated, DHFR fusion (Arabidopsis thaliana, UniProt Q8VZS8); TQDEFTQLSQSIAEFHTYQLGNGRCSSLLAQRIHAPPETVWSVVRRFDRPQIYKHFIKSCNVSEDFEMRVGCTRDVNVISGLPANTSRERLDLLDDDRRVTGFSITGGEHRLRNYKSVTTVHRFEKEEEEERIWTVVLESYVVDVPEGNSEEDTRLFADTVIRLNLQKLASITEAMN
| Change | ABA EC50 [µM] |
| --- | --- |
| Y141R | 9.47 |
| F157N | 8.41 |
| K54L | 21 |
| H16Q | 20.7 |
| S87F | 1.22 |
| S59K | 7.54 |
| F47N | 0.192 |
| I33D | 23.3 |
| A84D | 707 |
| N165E | 3.46 |
| I33N | 1.5 |

Block 3
Target: RNA binding protein fox-1 homolog 2, RRM domain, GST-SBP tag (RBFOX2, Homo sapiens, UniProt O43251-10, residues 100-194)
Method: RNA Bind-n-Seq
Molecule type: RNA
Sample: in vitro
Tested at: 365 nM
Setting: natural RNA segment, single round, ends assumed
Relative to: no-protein control
Reading: higher = stronger binding
Constant ends, left off below: GGGAGUUCUACAGUCCGACGAUC … UGGAAUUCUCGGGUGCCAA
Target sequence (chain): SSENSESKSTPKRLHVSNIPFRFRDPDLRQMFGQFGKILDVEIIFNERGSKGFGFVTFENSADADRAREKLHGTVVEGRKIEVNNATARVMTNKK
| Oligonucleotide | RBNS enrichment (R) |
| --- | --- |
| ACCUAGGGUGGCCUGAGAGGGCGGUGGGUAUGCGAGACCAGCACGGUGACUCUGUCCAGCUCCCGCUGUGGCCGCACGCCUCUCCCUGCACUCCCUCCUGGAGCUCUGUG | 0.966 |
| CUGCCCUCCUUAGACCUGAGGGACCCUUCGAGAUCAUCACUUCCUUGCCCCCAUUUCACCCAUGGGGAGACAGUUGAGAGCGGGGAUGUGACAUGCCCAAGGCCACGGAG | 0.269 |
| CUUUAAAAGGUGAAAAGUAUGAUUUCUUACCACUUAAGUAUGAUUGAUAUGAUCCAACAAAUUUGAUCAGAAGCUGUAGGUAAAUCCUCUUCUGAAGCCAAAAUGGUAUA | 0.399 |
| UAAGGUUAGAAGCCUGAACCGUUACAAAAGAAGAGCUCACUAUGGUCAAAAAGUGAUGGCUUUCAGGACUUGUUUUUUAUCCUGCCUCACAGUUGUUAAAGUCUGUUCCA | 0.377 |
| CUGCAGUCUGCGCCGUUUGAAAACCCUGAGAAAGAGAUGCCACCUCAACUUGAAUCAUGACAGCCCAUCGCUCAGUCUCACCCUAAACUCAUGGAGCUUGUUUCAGCUCC | 0.5 |
| ACUAGGAGGCCUGCAGUUAUUUUUGAAUGUGAAAAUGCAUUUGCGUUCAUCUUGUCUAUUUUUUCUCUUCAUGUUGUAACAAAAAGGAAAAAAGAAAAAAAAAUCCCAUC | 0.571 |
| UGUAUUUGUCCUUCAUAUUCAGGAUGUGAUAUUUACAAAAUGCAGAACAGUUUAAACUUGUUAAGUCACAUUCCAGAUUAGGAGAAAAUGGGCAAUAAUCAUCUCUGUUU | 0.429 |
| CAUUAGCCUGUGCAAAACCAUCUGUUUGGGGAGCACACUCUUCCAUUAUGCUUGGCACAUAGAUCUCCCUGUGGUGGGAUUUUUUUUUUCCCUUUUUUUGUGGGGGAGGG | 0.345 |
| UUGAAUAAUGUCUUCUCUUUAAUAUUCACAUAAGGCAGCCUAUUAACUGUGUCUUAGCAAUGUUGUAUAUAGUUCUUUUAAUAUUCAUAAGGUAUAUUUUUGAAUUUUGG | 1.04 |
| UGAGACCCCAAGGGAAAGGAGAGAGUUGCUUCUCAUUUCUGAUUUUAUUGUGCUGUUACUCUGUCGAGUGGCUAUUAAAAUUGUCUUAUGCUCUUUGGGCUAAGAGGGGA | 0.383 |
| CCAGGGCAUGGGGGCAAAUAUGACCCAGUUUUGGGAACACCGACAAACCCAGCCCUGGCGCUGAGCCUCUCUACCCCAGGUCAGACGGACAGAAAGACAGAUCACAGGUA | 0.272 |
| UUCUGCUUAUGGUCGUGAGCUGAUCACGCAGUUUGCUAGAUGAUUUGACACUGGUGGUGAGUUCUUUUGAGGCGUGAGAUUUCUAUGUGAAACUGAUAGGUCUUGAUCUG | 0.483 |

Block 4
Target: Interferon regulatory factor 7, full length, phosphomimetic (IRF7, Homo sapiens, UniProt Q92985, residues 1-503, S471D/S472D/S475D/S476D/S477D/S483D/S484D/S487D)
Method: protein-binding microarray
Molecule type: double-stranded DNA, one strand shown
Sample: in vitro
Tested at: 2200 nM top
Setting: 60-bp whole probe
Added: salmon DNA 0.4 mg/ml
Relative to: random background probes
Reading: higher = stronger binding
Constant ends, left off below: GCCTAGCAC … GTCTTGATTCGCTTGACGCTGCTG
Residues (chain): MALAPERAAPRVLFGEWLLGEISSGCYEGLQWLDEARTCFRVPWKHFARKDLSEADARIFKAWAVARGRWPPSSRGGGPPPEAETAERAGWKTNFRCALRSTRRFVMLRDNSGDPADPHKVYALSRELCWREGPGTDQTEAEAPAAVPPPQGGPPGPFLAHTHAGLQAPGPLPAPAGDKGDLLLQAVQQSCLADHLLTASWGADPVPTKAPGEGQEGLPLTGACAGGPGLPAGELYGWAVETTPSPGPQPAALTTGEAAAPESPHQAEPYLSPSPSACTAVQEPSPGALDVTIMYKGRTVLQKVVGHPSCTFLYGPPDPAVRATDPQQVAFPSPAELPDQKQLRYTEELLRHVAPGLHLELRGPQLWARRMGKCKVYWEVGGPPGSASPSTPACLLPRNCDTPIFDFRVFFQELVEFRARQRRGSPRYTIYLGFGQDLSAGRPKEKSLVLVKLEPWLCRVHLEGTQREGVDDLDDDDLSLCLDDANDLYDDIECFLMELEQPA
| Oligonucleotide | fitted relative affinity |
| --- | --- |
| TTAGAACTGAGATTCGATTAGTGCTAG | 0.22 z-score |
| TCAACTTTCTATGTCTGACTGTGCTAG | 2.57 z-score |
| TTAGTTTTCGGGTATCGATTAGTGCTA | 6.36 z-score |
| TCATATCTAAGATTCTAACTGTGCTAG | 0.585 z-score |
| TACGATTCCAGTTTCGAGACGTGCTAG | 4.28 z-score |
| GACGATTTCGGGTTTAGAGACGTGCTA | 3.91 z-score |
| TTAGATTTCCTTCTCCTTTAGTGCTAG | 1.76 z-score |
| GACGATTACAGACTGGAGACGTGCTAG | -0.0848 z-score |
| TTAGATTTTGGGTATCGATTAGTGCTA | 0.481 z-score |
| TTATGTATCCTACTGCTTTAGTGCTAG | 1.44 z-score |
| TCATCTTTTTTGTTCCAACTGTGCTAG | 1.75 z-score |
| TTAGGTTTCGGGCTGGGTTAGTGCTAG | 3.33 z-score |
| TTAGGTCTCGGTTTCGGTTGGTGCTAG | 8.52 z-score |
| GACGGACTGGGTTTCGGCACGTGCTAG | -0.0849 z-score |
| GACGGTATGGGTCTCGGGACGTGCTAG | -0.565 z-score |
| GACGCACTGCTTATCCTGACGTGCTAG | 0.872 z-score |
| TTAGACCTGAGTCTCGATTAGTGCTAG | -0.0699 z-score |
| GACGGTCTCGGTCTAGGGACGTGCTAG | -0.282 z-score |

Block 5
Target: ATP-dependent RNA helicase DDX3X, helicase core (DDX3X, Homo sapiens, UniProt O00571, residues 132-607)
Sequence of UniProt O00571 (132-607, looked up): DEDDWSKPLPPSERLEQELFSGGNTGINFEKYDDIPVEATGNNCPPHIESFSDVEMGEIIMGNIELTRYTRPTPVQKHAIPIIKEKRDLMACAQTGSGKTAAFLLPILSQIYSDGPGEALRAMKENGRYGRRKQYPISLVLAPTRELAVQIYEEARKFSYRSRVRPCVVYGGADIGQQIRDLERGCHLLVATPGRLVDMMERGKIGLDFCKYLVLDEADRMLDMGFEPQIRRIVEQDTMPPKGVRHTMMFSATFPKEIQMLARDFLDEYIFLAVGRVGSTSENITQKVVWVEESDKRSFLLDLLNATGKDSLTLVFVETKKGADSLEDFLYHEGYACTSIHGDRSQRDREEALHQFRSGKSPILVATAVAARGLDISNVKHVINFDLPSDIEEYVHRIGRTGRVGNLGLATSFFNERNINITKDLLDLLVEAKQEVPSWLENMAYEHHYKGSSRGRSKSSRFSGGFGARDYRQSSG
Method: RNA Bind-n-Seq
Molecule type: RNA
Sample: in vitro
Tested at: 90 pmol
Setting: 4-mer, random 30-nt RNA, single round
Added: 3 µM DMDA-PatA, 2 mM ADP, 2 mM phosphate
Relative to: input library
Reading: higher = stronger binding
| Oligonucleotide | 4-mer enrichment [fold] |
| --- | --- |
| AAUG | 1.04 |
| UGCG | 1.05 |
| CAUG | 0.942 |
| GGCC | 0.883 |
| CACG | 0.984 |
| UGUG | 1.18 |
| AUAA | 1.1 |
| AUGG | 0.953 |
| AACC | 0.943 |
| GGAC | 0.893 |
| CUAG | 0.828 |
| UCAG | 0.98 |
| CUGC | 0.838 |
| CUCC | 1 |
| UGUA | 1.05 |

Block 6
Target: Centromere-binding protein 1, full length, N-terminal tag (CBF1, Saccharomyces cerevisiae, UniProt P17106, residues 1-351)
Sequence of UniProt P17106 (whole entry, looked up): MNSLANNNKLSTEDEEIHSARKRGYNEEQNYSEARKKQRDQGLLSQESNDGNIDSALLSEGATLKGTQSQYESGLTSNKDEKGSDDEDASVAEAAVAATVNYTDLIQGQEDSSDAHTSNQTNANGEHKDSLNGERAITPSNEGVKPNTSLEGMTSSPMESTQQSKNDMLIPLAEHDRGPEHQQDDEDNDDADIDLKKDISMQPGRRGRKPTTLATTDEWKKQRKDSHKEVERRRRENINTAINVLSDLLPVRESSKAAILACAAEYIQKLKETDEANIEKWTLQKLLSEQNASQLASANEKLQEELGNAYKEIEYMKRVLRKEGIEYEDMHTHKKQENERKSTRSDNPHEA
Method: protein-binding microarray
Molecule type: double-stranded DNA, one strand shown
Sample: in vitro
Tested at: 0.8 µM
Setting: whole 60-bp probe, no competitor
Reading: higher = stronger binding
Constant ends, left off below: … GTCTTGATTCGCTTGACGCTGCTG
| Oligonucleotide | fluorescence intensity [a.u.] |
| --- | --- |
| GAATGAGTTACACCCCGCGTGCTAAAAAAGGGGTAG | 595 |
| CTAATGCAAAGTTGACACGTTCAGTTACTATTTTTC | 544 |
| CTAAAGAGCCGTACGTGAGTGAGAGGAGATCCGTTC | 495 |
| GAATTTTTCTTTTACTACGTGTGATCCTCTAAATAG | 707 |
| CTACTAAAGAACGTGCATCAGAGAAGAATAACTTTC | 674 |
| CTATACTACTATTAACAACTGATGGCATCTAGATTC | 509 |
| CTATAAAATATATCTGACGTCACTGGTTTGCAGTTC | 546 |
| CTAGGGCGCTGGGGACTCGTGCCCATCCGGGACTTC | 569 |
| GAATAAGTAATCATACACGTGAAAAGCACGTGATAG | 14300 |
| CCTAACTACTATAGGCCCGTGGAATAGCTTCGTACA | 512 |
| CTAGTAGTGACTCATCTGACTATATTGCCGGTTTTC | 556 |
| GAACAAACGGACTTTTACGTCACACGAAAAGTATAG | 565 |
| GAAAGTAGCTCGATTCACGTTCTATTAGCGGCATAG | 560 |
| CTACAAAAGGTTAGTAACATCAATATATCGCGGTTC | 534 |
| CTATTCCAGCCTTTCCACGTTTTTGTTATCTAATTC | 564 |
| CTACAGCCGCACAGTCACGTGACAGTATACGATTTC | 47100 |
| TGTACGAAGCTATATCACCAGGGTATAGTAGTTAGG | 508 |

A few entries again (block 4):
| Oligonucleotide | fitted relative affinity |
| --- | --- |
| TTAGTTTTCGGGTATCGATTAGTGCTA | 6.36 z-score |
| TCATATCTAAGATTCTAACTGTGCTAG | 0.585 z-score |
| TACGATTCCAGTTTCGAGACGTGCTAG | 4.28 z-score |
| GACGATTTCGGGTTTAGAGACGTGCTA | 3.91 z-score |
| TTAGATTTCCTTCTCCTTTAGTGCTAG | 1.76 z-score |
| GACGATTACAGACTGGAGACGTGCTAG | -0.0848 z-score |
| TTAGATTTTGGGTATCGATTAGTGCTA | 0.481 z-score |
| TTATGTATCCTACTGCTTTAGTGCTAG | 1.44 z-score |
| TCATCTTTTTTGTTCCAACTGTGCTAG | 1.75 z-score |
| TTAGGTTTCGGGCTGGGTTAGTGCTAG | 3.33 z-score |
| TTAGGTCTCGGTTTCGGTTGGTGCTAG | 8.52 z-score |
| GACGGACTGGGTTTCGGCACGTGCTAG | -0.0849 z-score |
| GACGGTATGGGTCTCGGGACGTGCTAG | -0.565 z-score |
| GACGCACTGCTTATCCTGACGTGCTAG | 0.872 z-score |
| TTAGACCTGAGTCTCGATTAGTGCTAG | -0.0699 z-score |
